Experimental data pooled from the literature.
Protocols differ between the studies behind these lines. ± gives the spread as reported.
Technique: steady-state kinetics
B1: Tcur_2987 Y332F (Thermomonospora curvata, UniProt D1A807); chain ACSEERAAGARPSATQTTGTATEPFHGPHQAGIATPPQAHAVFLGLDLRKGTGRKELGRLMRLLTDDARRLTQGRPALADPEPDLAPLPSRLTFTFGFGPGLFKAAGLEKQRPEGLRPLPPFKVDRLEDRWSGGDLLVQICCDDPITLAHALRMTVKDARAFTRVRWVQRGFRRSPGVQSSGATQRNLMGQLDGTVNPVPGTADFDQAVWVQDGPEWLRGGTTLVLRRIRMELEKWDEADPAGKEFAVGRRLTSGAPLTGRHEHDEPDFDAVDSAGFPVIAENAHIRLAHVDSPRLRMLRRPYNFDEGLTADGRSDAGLLFAAYQADIDRQFIPVQRRLDEGGDLLNLWTTPIGSAVFAIPPGCDENGWIGQGLLG
B2: carbamoyl phosphate synthetase large subunit M378E (Escherichia coli, UniProt P00968); chain PKRTDIKSILILGAGPIVIGQACEFDYSGAQACKALREEGYRVILVNSNPATIMTDPEMADATYIEPIHWEVVRKIIEKERPDAVLPTMGGQTALNCALELERQGVLEEFGVTMIGATADAIDKAEDRRRFDVAMKKIGLETARSGIAHTMEEALAVAADVGFPCIIRPSFTMGGSGGGIAYNREEFEEICARGLDLSPTKELLIDESLIGWKEYEMEVVRDKNDNCIIVCSIENFDAMGIHTGDSITVAPAQTLTDKEYQIMRNASMAVLREIGVETGGSNVQFAVNPKNGRLIVIEMNPRVSRSSALASKATGFPIAKVAAKLAVGYTLDELMNDITGGRTPASFEPSIDYVVTKIPRFNFEKFAGANDRLTTQEKSVGEVMAIGRTQQESLQKALRGLEVGATGFDPKVSLDDPEALTKIRRELKDAGADRIWYIADAFRAGLSVDGVFNLTNIDRWFLVQIEELVRLEEKVAEVGITGLNADFLRQLKRKGFADARLAKLAGVREAEIRKLRDQYDLHPVYKRVDTCAAEFATDTAYMYSTYEEECEANPSTDREKIMVLGGGPNRIGQGIEFDYCCVHASLALREDGYETIMVNCNPETVSTDYDTSDRLYFEPVTLEDVLEIVRIEKPKGVIVQYGGQTPLKLARALEAAGVPVIGTSPDAIDRAEDRERFQHAVERLKLKQPANATVTAIEMAVEKAKEIGYPLVVRPSYVLGGRAMEIVYDEADLRRYFQTAVSVSNDAPVLLDHFLDDAVEVDVDAICDGEMVLIGGIMEHIEQAGVHSGDSACSLPAYTLSQEIQDVMRQQVQKLAFELQVRGLMNVQFAVKNNEVYLIEVNPRAARTVPFVSKATGVPLAKVAARVMAGKSLAEQGVTKEVIPPYYSVKEVVLPFNKFPGVDPLLGPEMRSTGEVMGVGRTFAEAFAKAQLGSNSTMKKHGRALLSVREGDKERVVDLAAKLLKQGFELDATHGTAIVLGEAGINPRLVNKVHEGRPHIQDRIKNGEYTYIINTTSGRRAIEDSRVIRRSALQYKVHYDTTLNGGFATAMALNADATEKVISVQEMHAQIK
B3: enzyme A178R/D177A/M179H/P184R (Levilactobacillus brevis, UniProt Q03Q85); chain MKVTVVGCTHAGTFAIKQILAEHPDAEVTVYERNDVISFLSCGIALYLGGKVADPQGLFYSSPEELQKLGANVQMNHNVLAIDPDQKTVTVEDLTNHAQTTESYDKLVMTSGSWPIVPKIPGIDSDRVKLCKNWAHAQALIEDAKEAKRITVIGAGYIGAELAEAYSTTGHDVTLIARHARVMRKYFDADFTDVIEQDYRDHGVQLALGETVESFTDSATGLTIKTDKNSYETDLAILCIGFRPNTDLLKGKVDMAPNGAIITDDYMRSSNPDIFAAGDSAAVHYNPTHQNAYIPLATNAVRQGILVGKNLVKPTVKYMGTQSSSGLALYDRTIVSTGLTLAAAKQQGLNAEQVIVEDNYRPEFMPSTEPVLMSLVFDPDTHRILGGALMSKYDVSQSANTLSVCIQNENTIDDLAMVDMLFQPNFDRPFNYLNILAQAAQAKVAQSVNA
B4: tsaM1 F253S/G291W/H204M/H255G/M230N/R216A/S234V/S257H/T232I/Y220I (Comamonas testosteroni, UniProt P94679); chain MFIRNCWYVAAWDTEIPAEGLFHRTLLNEPVLLYRDTQGRVVALENRCCHRSAPLHIGRQEGDCVRCLYHGLKFNPSGACVEIPGQEQIPPKTCIKSYPVVERNRLVWIWMGDPARANPDDIVDYFWHDSPEWRMKPGYIHYQANYKLIVDNLLDFTHLAWVHPTTLGTDSAASLKPVIERDTTGTGKLTITRWYLNDDMSNLMKGVAKFEGKADAWQIIQWSPPALLRNDIGVAPTGTGAPEGRRVPEAVQSRGTHIQTPETETTSHYWFCQARNFDLDDEALTEKIYQWVVVAFEEDRTMIEAHEKILSQVPDRPMVPIAADAGLNQGRWLLDRLLKAENGGTAP
B5: DGKE (Homo sapiens, UniProt P52429); chain MEAERRPAPGSPSEGLFADGHLILWTLCSVLLPVFITFWCSLQRSRRQLHRRDIFRKSKHGWRDTDLFSQPTYCCVCAQHILQGAFCDCCGLRVDEGCLRKADKRFQCKEIMLKNDTKVLDAMPHHWIRGNVPLCSYCMVCKQQCGCQPKLCDYRCIWCQKTVHDECMKNSLKNEKCDFGEFKNLIIPPSYLTSINQMRKDKKTDYEVLASKLGKQWTPLIILANSRSGTNMGEGLLGEFRILLNPVQVFDVTKTPPIKALQLCTLLPYYSARVLVCGGDGTVGWVLDAVDDMKIKGQEKYIPQVAVLPLGTGNDLSNTLGWGTGYAGEIPVAQVLRNVMEADGIKLDRWKVQVTNKGYYNLRKPKEFTMNNYFSVGPDALMALNFHAHREKAPSLFSSRILNKAVYLFYGTKDCLVQECKDLNKKVELELDGERVALPSLEGIIVLNIGYWGGGCRLWEGMGDETYPLARHDDGLLEVVGVYGSFHCAQIQVKLANPFRIGQAHTVRLILKCSMMPMQVDGEPWAQGPCTVTITHKTHAMMLYFSGEQTDDDISSTSDQEDIKATE
B6: DAO1 (Trigonopsis variabilis, UniProt Q99042); chain MAKIVVIGAGVAGLTTALQLLRKGHEVTIVSEFTPGDLSIGYTSPWAGANWLTFYDGGKLADYDAVSYPILRELARSSPEAGIRLISQRSHVLKRDLPKLEVAMSAICQRNPWFKNTVDSFEIIEDRSRIVHDDVAYLVEFRSVCIHTGVYLNWLMSQCLSLGATVVKRRVNHIKDANLLHSSGSRPDVIVNCSGLFARFLGGVEDKKMYPIRGQVVLVRNSLPFMASFSSTPEKENEDEALYIMTRFDGTSIIGGCFQPNNWSSEPDPSLTHRILSRALDRFPELTKDGPLDIVRECVGHRPGREGGPRVELEKIPGVGFVVHNYGAAGAGYQSSYGMADEAVSYVERALTRPNL
B7: CT1526 (Chlorobium tepidum, UniProt Q8KC98); chain MSDLDVIRQIEQELGMQLEPVDKLKWYSKGYKLDKDQRVTAIGLYDCGSDTLDRIIQPLESLKSLSELSLSSNQITDISPLASLNSLSMLWLDRNQITDIAPLASLNSLSMLWLFGNKISDIAPLESLKSLTELQLSSNQITDIAPLASLKSLTELSLSGNNISDIAPLESLKSLTELSLSSNQITDIAPLASLKSLTELSLSSNQISDIAPLESLKSLTELQLSRNQISDIAPLESLKSLTELQLSSNQITDIAPLASLKSLTELQLSRNQISDIAPLESLNSLSKLWLNGNQITDIAPLASLNSLTELELSSNQITDIAPLASLKSLSTLWLSSNQISDIAPLASLESLSELSLSSNQISDISPLASLNSLTGFDVRRNPIKRLPETITGFDMEILWNDFSSSGFITFFDNPLESPPPEIVKQGKEAVRQYFQSIEEARSKGEALVHLQEIKVHLIGDGMAGKTSLLKQLIGETFDPKESQTHGLNVVTKQAPNIKGLENDDELKECLFHFWDFGGQEIMHASHQFFMTRSSVYMLLLDSRTDSNKHYWLRHIEKYGGKSPVIVVMNKIDENPSYNIEQKKINERFPAIENRFHRISCKNGDGVESIAKSLKSAVLHPDSIYGTPLAPSWIKVKEKLVEATTAQRYLNRTEVEKICNDSGITDPGERKTLLGYLNNLGIVLYFEALDLSEIYVLDPHWVTIGVYRIINSSKTKNGHLNTSALGYILNEEQIRCDEYDPAKNNKFTYTLLEQRYLLDIMKQFELCYDEGKGLFIIPSNLPTQIDNEPEITEGEPLRFIMKYDYLPSTIIPRLMIAMQHQILDRMQWRYGMVLKSQDHEGALAKVVAETKDSTITIAIQGEPRCKREYLSIIWYEIKKINANFTNLDVKEFIPLPGHPDELVEYKELLGLEKMGRDEYVSGKLEKVFSVSKMLDSVISKEERNKERLMGDINIKLENIGNPTIPIHQQVEVNVSQETVQHVENLQGFFENLKADILREAELEIDDPKERKRLANELELAENAITKMDAAVKSGKNKLKPDVKDRLGEFIDNLANENSRLRKGIALVMNGAEKVQKLARYYNNVAPFFDLPSVPPVLLGKEKT
B8: protein (UniProt A0A4Y6I1F8); chain MGSEVVSKKHEFGALEVEGIDFRASVAALGSTKKLVLGGAGFRGLEINGNLVKFTAIGIYVEEAIIPHLSPKLGGKTVEELCANELLFEEVLSAPFDKLIRVVFLLPLTGPQYSEKVVERIGLLPNPGLKEESIKQFLEIFKAENFPPRTSLVCSFTEDGLKIAFMKGPDFPEESDAVIEDKYFARAFLATIIAKDGVSPMAKLSFAERVSKYL
Chain of UniProt P08253 (whole entry, looked up): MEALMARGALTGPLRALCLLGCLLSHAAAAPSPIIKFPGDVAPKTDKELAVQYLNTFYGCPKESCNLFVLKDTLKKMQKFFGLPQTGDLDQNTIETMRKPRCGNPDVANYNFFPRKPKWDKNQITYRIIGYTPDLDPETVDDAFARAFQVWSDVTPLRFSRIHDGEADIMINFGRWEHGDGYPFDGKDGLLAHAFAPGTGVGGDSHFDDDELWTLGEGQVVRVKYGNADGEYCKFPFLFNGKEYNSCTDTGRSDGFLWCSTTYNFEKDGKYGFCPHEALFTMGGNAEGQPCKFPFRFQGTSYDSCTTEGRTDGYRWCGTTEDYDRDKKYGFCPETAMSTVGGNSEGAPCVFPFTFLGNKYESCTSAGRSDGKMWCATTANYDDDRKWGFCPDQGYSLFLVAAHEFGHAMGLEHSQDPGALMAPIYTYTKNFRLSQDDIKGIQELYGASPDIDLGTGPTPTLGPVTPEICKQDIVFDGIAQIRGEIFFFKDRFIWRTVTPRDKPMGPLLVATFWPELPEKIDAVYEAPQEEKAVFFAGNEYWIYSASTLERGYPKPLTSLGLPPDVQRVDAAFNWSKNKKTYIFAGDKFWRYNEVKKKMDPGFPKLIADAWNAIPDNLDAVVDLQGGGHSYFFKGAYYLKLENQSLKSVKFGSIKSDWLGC
Chain of UniProt O95674 (whole entry, looked up): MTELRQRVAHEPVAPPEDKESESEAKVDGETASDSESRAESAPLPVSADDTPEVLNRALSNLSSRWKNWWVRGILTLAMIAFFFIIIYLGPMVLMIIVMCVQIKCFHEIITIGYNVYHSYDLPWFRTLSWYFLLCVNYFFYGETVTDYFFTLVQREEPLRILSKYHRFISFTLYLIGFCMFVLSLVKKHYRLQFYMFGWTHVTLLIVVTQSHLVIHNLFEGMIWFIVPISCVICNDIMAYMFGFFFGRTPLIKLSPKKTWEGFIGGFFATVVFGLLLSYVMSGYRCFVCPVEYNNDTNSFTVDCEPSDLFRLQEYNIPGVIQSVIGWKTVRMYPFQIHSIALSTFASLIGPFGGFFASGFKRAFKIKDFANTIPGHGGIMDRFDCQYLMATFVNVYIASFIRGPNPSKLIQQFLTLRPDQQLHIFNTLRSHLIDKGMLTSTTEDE
Chain of UniProt P19337 (whole entry, looked up): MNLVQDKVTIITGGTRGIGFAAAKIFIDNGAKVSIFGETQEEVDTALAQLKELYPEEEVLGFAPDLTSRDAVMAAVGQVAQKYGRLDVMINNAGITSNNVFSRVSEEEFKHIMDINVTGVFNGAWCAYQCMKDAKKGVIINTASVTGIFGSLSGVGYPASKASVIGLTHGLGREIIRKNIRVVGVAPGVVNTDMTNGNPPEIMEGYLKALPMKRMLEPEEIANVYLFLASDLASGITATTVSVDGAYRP
Chain of UniProt Q2FXA5 (whole entry, looked up): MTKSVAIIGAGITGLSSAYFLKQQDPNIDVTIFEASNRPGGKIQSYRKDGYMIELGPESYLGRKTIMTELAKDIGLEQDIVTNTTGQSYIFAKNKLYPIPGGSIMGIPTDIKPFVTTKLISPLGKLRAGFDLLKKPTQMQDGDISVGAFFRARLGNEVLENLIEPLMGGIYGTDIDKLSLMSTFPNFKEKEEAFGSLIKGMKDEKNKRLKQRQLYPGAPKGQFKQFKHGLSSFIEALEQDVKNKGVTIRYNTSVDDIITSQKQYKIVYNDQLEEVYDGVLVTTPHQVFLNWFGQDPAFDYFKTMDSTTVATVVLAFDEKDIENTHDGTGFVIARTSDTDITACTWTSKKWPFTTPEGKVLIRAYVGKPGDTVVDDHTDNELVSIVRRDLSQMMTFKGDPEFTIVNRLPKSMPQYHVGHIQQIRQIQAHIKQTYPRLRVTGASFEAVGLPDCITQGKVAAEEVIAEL

`MMP2 (Homo sapiens, UniProt P08253)` has a kcat of 21.1 s⁻¹ (CC(=O)NCC(=O)N1CCC[C@H]1C(=O)N[C@@H](CC(C)C)C(=O)NCC(=O)N[C@@H](CC(C)C)C(=O)N[C@@H](CO)C(=O)N[C@@H](CC(C)C)C(=O)NCC(=O)N[C@@H](CCCCN)C(N)=O).
`protein (Trichoderma virens, UniProt G9MQB8)` has a kcat of 0.0075 ± 0.0005 s⁻¹ (O=c1ccn([C@@H]2O[C@H](COP(=O)(O)OP(=O)(O)OP(=O)(O)O)[C@@H](O)[C@H]2O)c(=O)[nH]1; pH 7.5, KCl 150 mM, with: SAM 1 mM, dithionite 5 mM).
With `enzyme (Staphylococcus aureus, UniProt Q2FXA5)` the kcat was 0.00767 ± 0.000333 s⁻¹ (Cc1c2[nH]c(c1CCC(=O)O)Cc1[nH]c(c(CCC(=O)O)c1C)Cc1[nH]c(c(CCC(=O)O)c1C)Cc1[nH]c(c(C)c1CCC(=O)O)C2; pH 8, 37 °C).
With `enzyme (Schistosoma mansoni, UniProt Q962Y6)` the kcat was 4.3 ± 0.4 s⁻¹ (NC(=O)CCCCC1CCSS1; pH 7.4, 25 °C).
The kcat of `Ptb (Listeria monocytogenes, UniProt Q8Y7B7)` is reported as 47 ± 2.6 s⁻¹ (CCCCCC(=O)SCCNC(=O)CCNC(=O)[C@H](O)C(C)(C)COP(=O)(O)OP(=O)(O)OC[C@H]1O[C@@H](n2cnc3c(N)ncnc32)[C@H](O)[C@@H]1OP(=O)(O)O; pH 7.5, 25 °C, apparent, poor fit).
With `B1 (Tcur_2987 Y332F)` the kcat was 83 ± 1 s⁻¹ (Nc1c(S(=O)(=O)O)cc(Nc2cccc(S(=O)(=O)CCOS(=O)(=O)O)c2)c2c1C(=O)c1ccccc1C2=O; pH 3, sigmoidal kinetics, with: H2O2 1 mM).
For `B2`, the kcat was 0.035 ± 0.002 s⁻¹ (Nc1ncnc2c1ncn2[C@@H]1O[C@H](COP(=O)(O)OP(=O)(O)OP(=O)(O)O)[C@@H](O)[C@H]1O; pH 7.6, KCl 100 mM, with: glutamine 10 mM, ornithine 10 mM).
`CDS2 (Homo sapiens, UniProt O95674)` has a kcat of 8 ± 0.3 s⁻¹ (CCCCC/C=C\C/C=C\C/C=C\C/C=C\CCCC(=O)O[C@H](COC(=O)CCCCCCCCCCCCCCCCC)COP(=O)(O)O; pH 8, not purified).
`enzyme (Neurospora crassa, UniProt Q7SCU7)` has a kcat of 0.69 s⁻¹ (Nc1ncnc2c1ncn2[C@@H]1O[C@H](COP(=O)(O)OP(=O)(O)OP(=O)(O)O)[C@@H](O)[C@H]1O; pH 7.5, 37 °C).
For `B3 (enzyme A178R/D177A/M179H/P184R)`, the kcat was 39 ± 6 s⁻¹ (NC(=O)C1=CN([C@@H]2O[C@H](COP(=O)(O)OP(=O)(O)OC[C@H]3O[C@@H](n4cnc5c(N)ncnc54)[C@H](O)[C@@H]3O)[C@@H](O)[C@H]2O)C=CC1; pH 7.5, 37 °C, per site).
`B4` gave a kcat of 0.0467 ± 0.005 s⁻¹ (COc1c(Cl)ccc(Cl)c1C(=O)O; apparent, with: NADH 1 mM).
`B5 (DGKE)` gave a kcat of 4.6 ± 0.6 s⁻¹ (CCCCC/C=C\C/C=C\CCCCCCCC(=O)O[C@@H](CO)COC(=O)CCCCCCCCCCCCCCCCC; pH 7.5, 25 °C, mixed micelles, surface mole percent, not purified, with: 0.1 mM ATP; 5 mM MgCl2).
For `protein (Cecembia lonarensis, UniProt K1KV82)`, the kcat was 3.98 ± 0.92 s⁻¹ (O=[N+]([O-])c1ccc(O[C@@H]2OC[C@H](O)[C@@H](O)[C@@H]2O)cc1; pH 5.5, 35 °C, substrate inhibition).
With `B6 (DAO1)` the kcat was 0.161 ± 0.004 s⁻¹ (Nc1ccc2nc3ccc(N)cc3[s+]c2c1; pH 8, 22 °C, apparent).
For `alanine aminopeptidase (Neisseria meningitidis, UniProt Q9JYV4)`, the kcat was 2.6 ± 0.27 s⁻¹ (NC(=O)Cc1cc(=O)oc2cc(NC(=O)[C@@H](N)Cc3ccc4ccccc4c3)ccc12; pH 7.5, 37 °C).
`B7 (CT1526)` has a kcat of 0.00167 ± 3.33e-05 s⁻¹ (Nc1nc2c(ncn2[C@@H]2O[C@H](COP(=O)(O)OP(=O)(O)OP(=O)(O)O)[C@@H](O)[C@H]2O)c(=O)[nH]1; pH 7.5, 25 °C, NaCl 150 mM, no nanobody).
The kcat of `B8 (protein)` is reported as 0.375 ± 0.0367 s⁻¹ (O=C(/C=C/c1ccc(O)cc1)c1ccc(O)cc1O).
For `BaiA2 (Clostridium scindens, UniProt P19337)`, the kcat was 0.0883 s⁻¹ (NC(=O)c1ccc[n+]([C@@H]2O[C@H](COP(=O)(O)OP(=O)(O)OC[C@H]3O[C@@H](n4cnc5c(N)ncnc54)[C@H](O)[C@@H]3O)[C@@H](O)[C@H]2O)c1; pH 8.7, 37 °C, cofactor from expression host, cofactor varied).

A few entries again:
For `BaiA2 (Clostridium scindens, UniProt P19337)`, the kcat was 0.0883 s⁻¹ (NC(=O)c1ccc[n+]([C@@H]2O[C@H](COP(=O)(O)OP(=O)(O)OC[C@H]3O[C@@H](n4cnc5c(N)ncnc54)[C@H](O)[C@@H]3O)[C@@H](O)[C@H]2O)c1; pH 8.7, 37 °C, cofactor from expression host, cofactor varied).
